Published values of several laboratories.
Each line is one published result; not all experiments were run side by side. “And” joins repeats or separate records; there may be more than shown. ± marks the error that the study gave.
Sequence of UniProt Q9HBH9 (whole entry, looked up): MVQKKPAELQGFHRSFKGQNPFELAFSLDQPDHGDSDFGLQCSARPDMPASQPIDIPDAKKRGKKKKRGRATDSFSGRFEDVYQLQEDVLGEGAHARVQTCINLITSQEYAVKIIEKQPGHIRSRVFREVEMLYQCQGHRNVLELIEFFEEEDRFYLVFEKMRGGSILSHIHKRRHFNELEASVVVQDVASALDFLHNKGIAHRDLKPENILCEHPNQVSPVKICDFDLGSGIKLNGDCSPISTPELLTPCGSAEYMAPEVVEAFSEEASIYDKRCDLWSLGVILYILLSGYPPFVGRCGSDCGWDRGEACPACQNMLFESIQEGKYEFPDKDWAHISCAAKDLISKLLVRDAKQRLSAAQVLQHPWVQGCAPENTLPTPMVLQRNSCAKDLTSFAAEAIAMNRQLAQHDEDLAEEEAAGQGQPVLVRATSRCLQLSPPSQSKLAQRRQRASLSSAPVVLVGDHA
Sequence of UniProt P35408 (whole entry, looked up): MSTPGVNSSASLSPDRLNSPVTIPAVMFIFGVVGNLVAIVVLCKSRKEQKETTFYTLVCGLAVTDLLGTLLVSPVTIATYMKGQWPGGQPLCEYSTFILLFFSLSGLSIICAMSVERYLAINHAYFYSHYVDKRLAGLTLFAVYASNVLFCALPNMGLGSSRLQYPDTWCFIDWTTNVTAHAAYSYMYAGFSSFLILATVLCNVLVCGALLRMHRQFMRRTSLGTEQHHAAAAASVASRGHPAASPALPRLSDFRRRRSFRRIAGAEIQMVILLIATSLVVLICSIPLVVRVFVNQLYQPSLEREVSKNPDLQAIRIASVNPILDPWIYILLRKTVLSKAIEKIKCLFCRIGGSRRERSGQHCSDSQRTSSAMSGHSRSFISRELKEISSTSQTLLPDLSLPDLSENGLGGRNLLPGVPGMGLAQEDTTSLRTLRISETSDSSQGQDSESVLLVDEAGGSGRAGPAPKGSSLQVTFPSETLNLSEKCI
Sequence of UniProt Q96RI9 (whole entry, looked up): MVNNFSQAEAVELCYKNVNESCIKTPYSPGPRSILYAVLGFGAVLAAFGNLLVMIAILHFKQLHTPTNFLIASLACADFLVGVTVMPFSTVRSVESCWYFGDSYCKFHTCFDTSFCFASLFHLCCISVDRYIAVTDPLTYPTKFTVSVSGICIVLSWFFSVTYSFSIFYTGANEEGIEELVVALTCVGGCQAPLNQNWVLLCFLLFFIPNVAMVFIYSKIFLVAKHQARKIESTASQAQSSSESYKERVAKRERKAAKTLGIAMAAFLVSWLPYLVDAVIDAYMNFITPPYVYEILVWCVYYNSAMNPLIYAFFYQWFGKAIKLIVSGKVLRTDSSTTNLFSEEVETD
Sequence of UniProt Q9JMD7 (whole entry, looked up): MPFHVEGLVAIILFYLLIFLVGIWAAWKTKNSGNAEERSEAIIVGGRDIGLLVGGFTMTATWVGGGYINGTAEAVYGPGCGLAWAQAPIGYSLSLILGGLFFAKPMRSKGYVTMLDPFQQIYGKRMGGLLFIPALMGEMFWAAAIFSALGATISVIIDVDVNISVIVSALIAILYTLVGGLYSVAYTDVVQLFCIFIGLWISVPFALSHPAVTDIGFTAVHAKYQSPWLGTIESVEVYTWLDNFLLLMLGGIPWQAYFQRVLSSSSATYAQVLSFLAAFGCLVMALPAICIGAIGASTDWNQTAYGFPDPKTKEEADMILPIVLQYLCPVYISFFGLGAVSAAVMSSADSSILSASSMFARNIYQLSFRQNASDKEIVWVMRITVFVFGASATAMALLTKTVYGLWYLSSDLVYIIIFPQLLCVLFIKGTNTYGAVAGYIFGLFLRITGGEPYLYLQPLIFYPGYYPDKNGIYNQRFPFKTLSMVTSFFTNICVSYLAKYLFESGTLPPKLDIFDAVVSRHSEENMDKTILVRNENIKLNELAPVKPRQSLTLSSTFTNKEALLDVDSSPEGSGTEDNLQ
Sequence of UniProt P30411 (whole entry, looked up): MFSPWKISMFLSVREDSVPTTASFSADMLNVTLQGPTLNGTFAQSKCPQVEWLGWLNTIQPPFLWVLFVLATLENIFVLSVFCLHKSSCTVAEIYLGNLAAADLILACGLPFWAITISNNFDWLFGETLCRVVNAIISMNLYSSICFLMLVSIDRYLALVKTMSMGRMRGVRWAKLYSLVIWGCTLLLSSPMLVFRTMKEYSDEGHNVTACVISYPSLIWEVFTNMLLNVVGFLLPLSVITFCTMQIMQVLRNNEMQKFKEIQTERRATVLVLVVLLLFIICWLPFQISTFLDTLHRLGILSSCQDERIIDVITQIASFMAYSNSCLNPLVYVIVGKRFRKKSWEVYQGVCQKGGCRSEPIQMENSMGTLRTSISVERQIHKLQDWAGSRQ
Sequence of UniProt Q12769 (whole entry, looked up): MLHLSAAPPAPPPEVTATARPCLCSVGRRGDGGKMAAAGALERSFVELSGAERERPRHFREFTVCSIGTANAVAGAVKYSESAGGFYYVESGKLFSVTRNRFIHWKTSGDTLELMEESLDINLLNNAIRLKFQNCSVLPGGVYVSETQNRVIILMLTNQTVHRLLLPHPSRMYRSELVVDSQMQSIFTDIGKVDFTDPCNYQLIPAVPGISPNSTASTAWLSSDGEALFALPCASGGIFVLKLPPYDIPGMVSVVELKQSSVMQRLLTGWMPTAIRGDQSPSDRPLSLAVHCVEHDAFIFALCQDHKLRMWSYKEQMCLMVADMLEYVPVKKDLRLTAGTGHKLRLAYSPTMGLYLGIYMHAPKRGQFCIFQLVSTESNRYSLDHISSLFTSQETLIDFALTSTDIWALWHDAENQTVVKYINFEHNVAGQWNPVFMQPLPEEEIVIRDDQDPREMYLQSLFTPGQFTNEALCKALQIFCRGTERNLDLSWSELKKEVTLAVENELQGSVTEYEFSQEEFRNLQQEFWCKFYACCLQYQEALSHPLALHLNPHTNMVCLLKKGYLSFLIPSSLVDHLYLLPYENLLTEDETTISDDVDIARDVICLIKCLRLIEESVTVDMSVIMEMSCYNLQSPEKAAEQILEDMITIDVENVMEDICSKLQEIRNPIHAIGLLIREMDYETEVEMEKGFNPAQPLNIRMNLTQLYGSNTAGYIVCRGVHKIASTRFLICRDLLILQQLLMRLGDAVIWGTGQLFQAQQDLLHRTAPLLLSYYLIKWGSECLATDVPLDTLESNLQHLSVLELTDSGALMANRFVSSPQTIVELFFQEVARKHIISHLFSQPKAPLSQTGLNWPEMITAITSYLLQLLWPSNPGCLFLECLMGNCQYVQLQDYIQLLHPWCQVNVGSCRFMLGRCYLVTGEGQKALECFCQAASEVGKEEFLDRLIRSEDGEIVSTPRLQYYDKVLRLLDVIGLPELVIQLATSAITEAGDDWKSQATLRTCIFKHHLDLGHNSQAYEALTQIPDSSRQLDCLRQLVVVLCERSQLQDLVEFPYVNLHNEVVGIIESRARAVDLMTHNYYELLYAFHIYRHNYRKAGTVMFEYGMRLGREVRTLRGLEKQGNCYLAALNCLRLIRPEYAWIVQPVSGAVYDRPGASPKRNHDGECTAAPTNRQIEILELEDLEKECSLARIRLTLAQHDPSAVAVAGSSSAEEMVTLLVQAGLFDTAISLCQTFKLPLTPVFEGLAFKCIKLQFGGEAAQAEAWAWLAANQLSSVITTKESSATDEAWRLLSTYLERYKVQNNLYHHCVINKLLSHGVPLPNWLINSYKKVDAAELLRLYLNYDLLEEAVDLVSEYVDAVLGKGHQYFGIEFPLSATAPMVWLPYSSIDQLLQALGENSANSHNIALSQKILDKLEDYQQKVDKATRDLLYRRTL

For `COc1ccc2c(c1)[nH]c1c(C)nccc12`, the DNA methylation was 88% (DU-145; bisulfite pyrosequencing, measured: RASSF1A promoter CpG site 19; 10 µM, 16 h).
`O=C(Nc1cccnn1)N1CCC(=Cc2cccc(Oc3ccc(C(F)(F)F)cn3)c2)CC1` gave an inhibition of 2% (BDKRB2 (Homo sapiens, UniProt P30411); binding; 10 µM, together with: [3H]bradykinin).
The γ-GT activity of `C[C@H]1O[C@@H](O[C@H]2CC[C@@]3(C)[C@@H](CC[C@]4(C)[C@@H]3C=C[C@]35OC[C@@]6(CCC(C)(C)C[C@H]63)[C@@H](O)C[C@]54C)[C@]2(C)CO)[C@H](O)[C@@H](O[C@@H]2O[C@H](CO)[C@@H](O)[C@H](O)[C@H]2O)[C@H]1O` is reported as 32.5 U/L and 21.9 U/L and 29.8 U/L and 27.9 U/L and 28.3 U/L and 29.3 U/L (Mus musculus, pair-fed, AAV8-TBG-SIRT1 shRNA hepatic SIRT1 knockdown, plasma; oral, high dose, 5 h).
With `CNCCC(Oc1ccccc1OC)c1ccccc1` (stereo not shown) the IC50 was 2510 nM (Plasmodium falciparum; 7G8).
`O=C(NC12CC3CC(CC(C3)C1)C2)c1cc(-c2ccc(Cl)cc2Cl)c[nH]1` gave an IC50 of greater than 64 µg/mL (Vero; 48 h).
`C[C@H](C(=O)N[C@H]1COc2ccccc2[C@@H]1S(C)(=O)=O)c1ccc(F)cc1` has an inhibition of -4% (GABAB receptor, rat; binding; 10 µM, Eurofins selectivity panel).
For `CN(C)CC[C@@H](c1ccc(Br)cc1)c1ccccn1`, the IC50 was 794 nM (Plasmodium falciparum; GB4).
The tissue uptake of `CC[C@H](C)[C@H](NC(=O)[C@H](Cc1ccccc1)NC(=O)[C@H](CCC(=O)O)NC(=O)[C@H](CCCNC(=N)N)NC(=O)[C@H](C)NC(=O)[C@H](C)NC(=O)[C@H](CCC(N)=O)NC(=O)[C@H](CCC(=O)O)NC(=O)[C@H](CCC(=O)O)NC(=O)[C@H](CC(C)C)NC(=O)[C@H](Cc1ccc(O)cc1)NC(=O)[C@H](CO)NC(=O)[C@H](CO)NC(=O)[C@@H](NC(=O)[C@H](CC(=O)O)NC(=O)[C@H](CO)NC(=O)[C@@H](NC(=O)[C@H](Cc1ccccc1)NC(=O)[C@@H](NC(=O)CNC(=O)[C@H](CCC(=O)O)NC(=O)[C@H](C)NC(=O)CCc1c[nH]cn1)[C@@H](C)O)[C@@H](C)O)C(C)C)C(=O)N[C@@H](C)C(=O)N[C@@H](Cc1c[nH]c2ccccc12)C(=O)N[C@@H](CC(C)C)C(=O)N[C@H](C(=O)N[C@@H](CCCNC(=N)N)C(=O)NCC(=O)N[C@@H](CCCNC(=N)N)C(=O)N[C@@H](CCCCNC(=O)COCCOCCNC(=O)COCCOCCNC(=O)CC[C@H](NC(=O)CCCCCCCCCCCCCCCCC(=O)O)C(=O)O)C(=O)NCC(=O)NCC(=O)N[C@@H](CO)C(=O)N[C@@H](CCCCNc1c(NCCCCCN(O)C(=O)CCC(=O)NCCCCCN(O)C(=O)CCC(=O)NCCCCCN(O)C(C)=O)c(=O)c1=O)C(=O)O)C(C)C` [zirconium-89 labelled] is reported as 0.97 %ID/g (rat, bone marrow; sc, 3 nmol/kg, 4 h, ex vivo).
The GI50 of `COc1cc(CCC[P+](c2ccccc2)(c2ccccc2)c2ccccc2)c(OC)c2c1OCO2.[I-]` is reported as -5.85 log M (A498; SRB).
`CCCCC1(CCCC)CN(c2ccccc2)c2cc(SC)c(OCC(=O)N[C@@H](C(=O)NCC(=O)O)c3ccccc3)cc2S(=O)(=O)C1` gave a serum HDL-C of 51 mg/dL (measured: HDL cholesterol; human, serum; 20 mg once daily, day 11).
With `O=C(NC1CCCCCCC1)c1cc(-c2ccncc2F)c[nH]1` the IC50 was greater than 64 µg/mL (Vero; 48 h).
`CN(C)CCOC(C)(c1ccccc1)c1ccccn1` (stereo not shown) gave an IC50 of 10000 nM (Plasmodium falciparum; Dd2).
The kinact/Ki of `Cc1cc(C)n2c1C=C1C=CC(CCC(=O)Nc3ccc(OCC(=O)N[C@@H]4C(=O)N5[C@@H]4SC(C)(C)[C@@H]5C(=O)[O-])cc3)=[N+]1[B-]2(F)F.[Na+]` is reported as 20300 ± 1200 M⁻¹ s⁻¹ (PBP1b, Streptococcus pneumoniae; inhibitor; live Streptococcus pneumoniae cells).
The Vmax of `O=C1CC[C@@]2(O)[C@H]3Cc4ccc(O)c5c4[C@@]2(CCN3CC2CC2)[C@H]1O5` is reported as 945 pmol/min/mg protein (H+/organic cation antiporter; cell uptake; hCMEC/D3).
For `C[C@@H]1CC[C@H]2[C@@H](C)C(=O)O[C@@H]3O[C@@]4(C)CC[C@@H]1[C@]32OO4`, the IC50 was 30 nM (Plasmodium falciparum; Dd2).
`c1ccc(C(NCCNC(c2ccccc2)c2ccccc2)c2ccccc2)cc1` has an inhibition of 5% (NMDA receptor, rat, Glycine site; binding; 10 µM, Eurofins selectivity panel).
With `Nc1ncnc2c1ncn2[C@@H]1O[C@@H]2COP(=O)(O)O[C@H]3[C@@H](O)[C@H](n4cnc5c(=O)[nH]cnc54)O[C@@H]3COP(=O)(O)O[C@H]2[C@H]1O` the fold enrichment was 1.9 (HFF-1; RNA sequencing, measured: Reactome Innate Immune System; upregulated pathways; baseline: mock).
`COc1c(CCC[P+](c2ccccc2)(c2ccccc2)c2ccccc2)cc2c(c1OC)OCO2.[I-]` gave a GI50 of -5.48 log M (NCI-H226; SRB).
For `Oc1ccc2c3c1O[C@H]1[C@@H](O)CC[C@@]4(O)[C@@H](C2)N(CC2CCC2)CC[C@]314`, “log2 fold change” read 0.716 (Trace amine-associated receptor 9 (TAAR9, Homo sapiens, UniProt Q96RI9); β-arrestin recruitment, TANGO luminescence, measured: TAAR9; concentration not given; baseline: basal luminescence).
For `COc1cc(Nc2ncc(F)c(Nc3ccc4c(n3)NC(=O)C(C)(C)O4)n2)cc(OC)c1OC`, the IC50 was greater than 10000 nM (PTGER4 (Homo sapiens, UniProt P35408)).
The median ratio of `O=C(c1ccc(Cl)cc1)N1CCN2C(=O)N(OC(=O)N3CCOc4ccccc43)C(=O)C2C1` (stereo not shown) is reported as 1.07 (Kallikrein-6 (Homo sapiens, UniProt Q92876); enzyme activity, inhibitor, MS-based ABPP; SW-620 in situ; 10 µM, 2 h, 37 °C; baseline: compound over DMSO, lower = stronger inhibition).
For `CC[C@]1(O)C[C@H]2CN(CCc3c([nH]c4ccccc34)[C@@](C(=O)OC)(c3cc4c(cc3OC)N(C=O)[C@H]3[C@@](O)(C(=O)OC)[C@H](OC(C)=O)[C@]5(CC)C=CCN6CC[C@]43[C@@H]65)C2)C1`, the IC50 was 100 nM (Plasmodium falciparum; 3D7).
The headache incidence of `CO[C@H]1C[C@@H]2CC[C@@H](C)[C@@](O)(O2)C(=O)C(=O)N2CCCC[C@H]2C(=O)O[C@H]([C@H](C)C[C@@H]2CC[C@@H](OC(=O)NCCOCCOCCOCCOCCOCCOCCOCCOCCC(=O)N3CCc4cc(Cn5nc(-c6ccc7oc(N)nc7c6)c6c(N)ncnc65)ccc4C3)[C@H](OC)C2)C[C@@H](O)[C@H](C)/C=C(\C)[C@@H](O)[C@@H](OC)C(=O)[C@H](C)C[C@H](C)/C=C/C=C/C=C/1C` is reported as 12.5% (patients with advanced solid tumours; intravenous, 10 mg weekly, any grade).
The IC50 of `CCNC(=O)N1CCN(CCCC(c2ccc(F)cc2)c2ccc(F)cc2)CC1` is reported as 2510 nM (Plasmodium falciparum; Dd2).
For `O=C(O)C[C@H](NC(=O)[C@H](CC(=O)O)NC(=O)[C@H](CC(=O)O)NC(=O)[C@H](CC(=O)O)NC(=O)[C@H](CC(=O)O)NC(=O)[C@H](CC(=O)O)NC(=O)[C@H](CC(=O)O)NC(=O)[C@H](CC(=O)O)NC(=O)[C@H](CC(=O)O)NC(=O)[C@H](CC(=O)O)NC(=O)[C@H](CC(=O)O)NC(=O)[C@H](CCCCNC(=O)c1ccc(C(=O)NCCOCCOB2BBBBBB3BBBB3B2)cc1)NC(=O)CN1CCN(CC(=O)O)CCN(CC(=O)O)CCN(CC(=O)O)CC1)C(=O)O` [gallium-67 labelled], the tissue uptake was 0.51 %ID/g (gamma counting; ddY mouse, male, 6 weeks old, large intestine; intravenous, 37 kBq, 10 min).
`O=S(=O)(c1cccc2c(Cl)cccc12)N1CCCNCC1` gave an IC50 of 6310 nM (Plasmodium falciparum; Dd2).
`Nc1ccn(C[C@@H](CO)OCP(=O)(O)O)c(=O)n1` gave an infection of 90.8% and 76% and 93.8% (Fowlpox virus; viral infection; CEF; 25 µM; baseline: untreated).
`O=C1NC(=O)C(C2C3=C(CCCC3=O)Oc3ccc([N+](=O)[O-])cc32)C(=O)N1` (stereo not shown): “mean lipid content” 0.689 OD492 (3T3-L1 mature adipocytes; lipolysis, Oil Red O staining; IC20).
With `O=C(NC12CC3CC(CC(C3)C1)C2)c1cc(-c2ccc(Cl)cc2)c[nH]1` the IC50 was greater than 64 µg/mL (Vero; 48 h).
`Nc1ncc(-c2nc(N3CCOCC3)nc(N3CCOCC3)n2)c(C(F)F)n1` gave a GI50 of 276 nM (NCI-H82; 72 h).
With `COc1ccc(-n2nc(C(C)=O)s/c2=N\N=C(/C)c2ccc(NC(C)=O)cc2)cc1` the viability was 37.6% (HepG2; 0.156 µM).
`N=C(N)c1ccc(OCc2cc(Br)cc(COc3ccc(C(=N)N)cc3)c2)cc1`: “MIC of compound in combination” 6.25 µg/mL (Escherichia coli; checkerboard; mcr-3 polymyxin-resistant; concentration not given, together with: rifampicin).
`CC[C@H](C)[C@@H]1NC(=O)[C@@H]2CCCN2C(=O)[C@H](CC(C)C)NC(=O)[C@H](CC(C)C)NC(=O)CNC(=O)[C@@H](NC(=O)[C@@H](NC(=O)[C@H](CC(=O)O)NC(=O)CNC(=O)[C@@H](NC(=O)[C@H](C)NC(=O)CNC(=O)[C@H](CCCCN)NC(=O)[C@H](CC(C)C)NC(=O)[C@H](CC(C)C)NC(=O)[C@H](CCCCN)NC(=O)CNC(=O)[C@@H](NC(=O)[C@@H](N)CC(C)C)C(C)C)C(C)C)C(C)C)CSSC[C@@H](C(=O)O)NC1=O` — result for “log2 fold change”: -0.0928 (RNA-seq, measured: Bcl2; mouse, traumatic brain injury model, frontal cortex and hippocampus; dose not given; baseline: TBI alone).
The IC50 of `COc1c(C)c2c(c(O)c1C/C=C(\C)CCC(=O)O)C(=O)OC2` is reported as 794 nM (SK-OV-3; cell proliferation).
The IC50 of `CNCC[C@@H](Oc1ccccc1C)c1ccccc1` is reported as 1580 nM (Plasmodium falciparum; GB4).
The inhibition of `COc1ccc(N2C(=O)N(c3c(C)cccc3Cl)Cc3cnc(Nc4ccc(C5CCN(C)CC5)cc4OC)nc32)nc1` is reported as 4.45% (MKNK2 (Homo sapiens, UniProt Q9HBH9); kinase activity, inhibitor; 0.5 µM, MNK2).
`C#CCN(C)[C@H](C)Cc1ccccc1` — result for “corridor crossing time”: 5.55 s and 6.03 s and 5.79 s and 5.37 s and 5.02 s and 5.26 s and 8.35 s and 5.88 s (footprint test; MPTP-induced Parkinson's disease mouse model; 10 mg/kg, trial 2).
The EC50 of `COCCn1c2nc(=O)n(-c3ccccc3)c(=O)c-2nc2ccccc21` is reported as 200 nM (Zika virus; viral replication, plaque reduction; Vero, Venus reporter).
The tissue uptake of `C[C@@H](O)[C@@H](CO)NC(=O)[C@@H](CCCNC(=N)N)NC(=O)[C@@H]1CCCN1C(=O)[C@@H]1CSSC[C@H](NC(=O)[C@H](Cc2ccccc2)NC(=O)CN2CCN(CC(=O)O)CCN(CC(=O)O)CCN(CC(=O)O)CC2)C(=O)N[C@@H](Cc2ccc(O)cc2)C(=O)N[C@@H](Cc2ccccc2)C(=O)N[C@@H](CCC(N)=O)C(=O)N[C@@H](CC(N)=O)C(=O)N1` [gallium-68 labelled] is reported as 0.05 %ID/g (Wistar rat, brain; intravenous, 8 MBq, 60 min, group mean).
The remaining binding of `C[C@H]1CN(c2n[nH]c3nc(N[C@H]4CC[C@H](NS(=O)(=O)CCC(F)(F)F)CC4)ncc23)CCO1` is reported as 1.09 (Nuclear pore complex protein Nup160 (Homo sapiens, UniProt Q12769); Kinobeads competition, measured: NUP160; 0.8 µM, unit not given; baseline: vehicle).
`C/C=C(/C)C(=O)O[C@H]1C(C)=C2[C@H]([C@@H]1OC(=O)CCCCCCC)[C@@](C)(OC(C)=O)C[C@H](OC(=O)CCC)[C@@]1(O)[C@H]2OC(=O)[C@@]1(C)O` — result for “normalized enrichment score”: 1.01 (HEK-293T; RNA-seq GSEA, measured: Hallmark UV response down; 500 nM, 6 h; direction not given).
With `CN(C(=O)n1cnc(-c2ccc[n+]([O-])c2)c1)C1CCCCC1` the inhibition was -4% (High affinity choline transporter 1 (Rattus norvegicus, UniProt Q9JMD7); radioligand binding; 10 µM, together with: [3H]hemicholinium-3).
For `COc1cc2c(Oc3ccc4[nH]c(C)cc4c3F)ccnc2cc1OCC1(N)CC1`, “grade 3 Hyperuricemia” read 0% (paediatric recurrent refractory sarcoma; 8 mg).

For quick reference, copied from above:
`CCCCC1(CCCC)CN(c2ccccc2)c2cc(SC)c(OCC(=O)N[C@@H](C(=O)NCC(=O)O)c3ccccc3)cc2S(=O)(=O)C1` gave a serum HDL-C of 51 mg/dL (measured: HDL cholesterol; human, serum; 20 mg once daily, day 11).
The IC50 of `COc1c(C)c2c(c(O)c1C/C=C(\C)CCC(=O)O)C(=O)OC2` is reported as 794 nM (SK-OV-3; cell proliferation).
For `C[C@@H]1CC[C@H]2[C@@H](C)C(=O)O[C@@H]3O[C@@]4(C)CC[C@@H]1[C@]32OO4`, the IC50 was 30 nM (Plasmodium falciparum; Dd2).
`N=C(N)c1ccc(OCc2cc(Br)cc(COc3ccc(C(=N)N)cc3)c2)cc1`: “MIC of compound in combination” 6.25 µg/mL (Escherichia coli; checkerboard; mcr-3 polymyxin-resistant; concentration not given, together with: rifampicin).
The GI50 of `COc1cc(CCC[P+](c2ccccc2)(c2ccccc2)c2ccccc2)c(OC)c2c1OCO2.[I-]` is reported as -5.85 log M (A498; SRB).
